{"data": "Experimental data of several laboratories", "note": "Compare with care: the assays were run in different laboratories. Values joined by “and” are separate records of one study, mostly repeats; a detail may differ. ± marks the error that the study gave.", "sequence of UniProt P41597 (whole entry, looked up)": "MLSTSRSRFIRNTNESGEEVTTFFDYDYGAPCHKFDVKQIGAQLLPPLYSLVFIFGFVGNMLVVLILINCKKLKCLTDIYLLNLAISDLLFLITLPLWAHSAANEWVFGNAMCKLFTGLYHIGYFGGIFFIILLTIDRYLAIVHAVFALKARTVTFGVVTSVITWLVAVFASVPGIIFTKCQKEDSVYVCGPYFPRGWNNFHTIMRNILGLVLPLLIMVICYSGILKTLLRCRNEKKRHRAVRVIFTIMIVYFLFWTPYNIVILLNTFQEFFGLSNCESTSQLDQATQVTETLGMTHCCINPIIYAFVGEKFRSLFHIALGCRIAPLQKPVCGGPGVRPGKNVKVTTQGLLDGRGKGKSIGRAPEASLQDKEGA", "sequence of UniProt Q00536 (whole entry, looked up)": "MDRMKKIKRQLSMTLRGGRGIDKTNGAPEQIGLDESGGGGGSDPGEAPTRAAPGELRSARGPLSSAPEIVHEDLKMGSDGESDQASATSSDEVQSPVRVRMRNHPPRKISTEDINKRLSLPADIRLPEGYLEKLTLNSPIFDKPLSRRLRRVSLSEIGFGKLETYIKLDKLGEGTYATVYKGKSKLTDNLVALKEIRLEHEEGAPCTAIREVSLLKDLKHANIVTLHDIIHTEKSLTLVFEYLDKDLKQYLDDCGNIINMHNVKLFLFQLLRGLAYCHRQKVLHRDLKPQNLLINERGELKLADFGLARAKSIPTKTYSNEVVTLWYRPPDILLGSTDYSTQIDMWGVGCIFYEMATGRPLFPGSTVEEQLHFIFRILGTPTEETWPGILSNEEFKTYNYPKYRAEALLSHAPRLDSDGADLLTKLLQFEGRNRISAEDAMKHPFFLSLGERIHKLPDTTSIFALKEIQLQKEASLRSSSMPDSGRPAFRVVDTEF"}
{"Compound": "O=C1NC2(CC2)COc2ncc(F)cc2[C@H]2COCCN2c2ccn3ncc1c3n2", "test system": "Sprague-Dawley rat, female, blood", "setting": "oral, 2.5 mg/kg/day, end of treatment, 4-week repeated-dose toxicity", "scale": "relative to: red blood cells", "endpoint": "reticulocytes", "value": "2.09 ± 1.38%"}
{"Compound": "CC(C)(C)C(=O)OCOP(=O)(OCOC(=O)C(C)(C)C)C1CCCN(O)C1=O (stereo not shown)", "tested on": "MDA-MB-231", "endpoint": "Log10LC50", "value": "> -4 log M"}
{"Compound": "COc1ccccc1-c1n[nH]c2nc(N[C@H]3CC[C@H](NS(=O)(=O)CC(C)C)CC3)ncc12", "assay": "bead binding, competition bead pull-down, refers to: LINJ.25.2230", "test system": "Leishmania donovani extract", "setting": "10 µM", "scale": "relative to: vehicle", "endpoint": "relative abundance", "value": 0.84}
{"Compound": "CCOC(=O)C1(C)Oc2cc(F)ccc2N(C)C1=O (stereo not shown)", "tested on": "Amaranthus retroflexus", "assay": "fresh weight, greenhouse postemergence", "setting": "postemergence, 150 g ai/ha, 21 days", "endpoint": "inhibition", "value": "68.8 ± 0.9%"}
{"Compound": "CN(C)[C@H]1C[C@@]23CC[C@@]4(O2)C(=CC[C@]2(C)[C@@H](c5ccc6ccncc6c5)CC[C@H]24)C=C3[C@@H](O)[C@@H]1O", "tested on": "CDK16 (Homo sapiens, UniProt Q00536)", "assay": "ATP probe labelling, inhibitor, KiNativ profiling", "setting": "1 µM", "endpoint": "inhibition", "value": "-14.4%"}
{"Compound": "NCCO.O=C(O)C(Cl)Cl", "tested on": "Amaranthus retroflexus", "assay": "herbicidal activity", "setting": "15 mg/mL, 21 days, post-emergence greenhouse", "endpoint": "inhibition", "value": "0%"}
{"Compound": "CS(C)(=O)=Nc1ccc(-c2ccc(-c3nc4cc(O[C@@H]5CO[C@H]6[C@@H]5OC[C@H]6O)[nH]c4cc3F)cc2)cc1", "tested on": "CCR2 (Homo sapiens, UniProt P41597)", "assay": "calcium signal, antagonist", "setting": "10 µM", "endpoint": "inhibition", "value": "0%"}
{"Compound": "Cc1cc(C(=O)Nc2nc3cccc(C)c3n2[C@H]2CCCCN(C(=O)/C=C/CN(C)C)C2)ccn1", "tested on": "Trypanosoma brucei brucei", "test system": "CLK1 C215S mutant expressing", "setting": "5 x EC50, 36 h", "endpoint": "cell growth", "value": "4600% and 4530% and 5870%"}
{"Compound": "COc1ccccc1-c1n[nH]c2nc(NC3CCN(C(=O)Cc4ccc(F)cc4F)CC3)ncc12", "assay": "bead binding, competition bead pull-down, refers to: LINJ.31.2410", "test system": "Leishmania donovani axenic amastigote extract", "setting": "10 µM", "scale": "relative to: vehicle", "endpoint": "relative abundance", "value": 0.84}
{"Compound": "CC[C@H](C)[C@H](NC(=O)[C@H](CCCCN)NC(=O)[C@H](CCCCN)NC(=O)[C@H](Cc1ccccc1)NC(=O)[C@H](Cc1ccccc1)NC(=O)[C@H](CCCCN)NC(=O)[C@H](CCCCN)NC(=O)[C@H](Cc1ccccc1)NC(=O)[C@H](CCCNC(=N)N)NC(=O)[C@@H](N)CCCCN)C(=O)N[C@@H](CCCCN)C(=O)N[C@@H](CCCCN)C(=O)N[C@@H](CO)C(=O)N[C@H](C(=O)N[C@@H](CCCCN)C(=O)N[C@@H](CCCCN)C(=O)N[C@@H](CCCNC(=N)N)C(=O)N[C@H](C(=O)N[C@@H](CCCCN)C(=O)N[C@@H](CCCCN)C(=O)N[C@@H](CC(C)C)C(=O)N[C@@H](Cc1ccccc1)C(=O)N[C@@H](CCCCN)C(=O)N[C@@H](CCCCN)C(=O)N1CCC[C@H]1C(=O)N[C@@H](CCCNC(=N)N)C(=O)N[C@H](C(=O)N[C@H](C(=O)N1CCC[C@H]1C(=O)N[C@H](C(=O)N[C@@H](CO)C(=O)N[C@H](C(=O)N1CCC[C@H]1C(=O)N[C@@H](Cc1ccccc1)C(=O)O)[C@@H](C)CC)[C@@H](C)CC)[C@@H](C)CC)C(C)C)C(C)C)C(C)C", "tested on": "Pseudomonas aeruginosa", "test system": "P3 clinical isolate", "setting": "20 h", "endpoint": "MBC", "value": "8 µg/mL"}
{"Compound": "CC(C)C[C@H](NC(=O)[C@@H](N)CO)C(=O)N[C@@H](Cc1c[nH]c2ccccc12)C(=O)N[C@@H](CCC(=O)O)C(=O)N[C@@H](CC(N)=O)C(=O)N[C@@H](Cc1ccccc1)C(=O)N[C@@H](CCCCN)C(N)=O", "tested on": "all tested microorganisms", "endpoint": "geometric mean MIC", "value": "256 µM"}
{"Compound": "COc1ccc(Cn2c3cc(=O)n(Cc4cccc(Cl)n4)c(C)c3c(=O)n2-c2ccccn2)cc1", "tested on": "human respiratory syncytial virus", "test system": "recombinant reporter virus", "setting": "concentration not given, scale 0 to 100, together with: adenosine 0.13 µM", "endpoint": "normalized viral replication", "value": 0}
{"Compound": "CC[C@H](C)CCCCC(=O)N[C@@H](CCN)C(=O)N[C@H](C(=O)N[C@@H](CCN)C(=O)N[C@H]1CCNC(=O)[C@H]([C@@H](C)O)NC(=O)[C@H](CCN)NC(=O)[C@H](CCN)NC(=O)[C@H](CC(C)C)NC(=O)[C@@H](CC(C)C)NC(=O)[C@H](CCN)NC1=O)[C@@H](C)O", "tested on": "Escherichia coli", "assay": "daily serial passaging", "test system": "ATCC 8739", "setting": "highest sub-MIC, 22 days", "scale": "relative to: initial MIC", "endpoint": "MIC fold change", "value": 1.26}
{"Compound": "CCOC(=O)C1(Cc2ccccc2)Oc2ccccc2N(Cc2ccccc2)C1=O (stereo not shown)", "tested on": "Amaranthus retroflexus", "assay": "fresh weight, greenhouse postemergence", "setting": "postemergence, 150 g ai/ha, 21 days", "endpoint": "inhibition", "value": "55.4 ± 5.26%"}
{"Compound": "[O-][N+]1=C(c2ccc(Cl)cc2)C2=NCCCN2c2ccccc21", "tested on": "Bacteroides fragilis", "assay": "microbial growth", "endpoint": "MIC50", "value": "1 µg/mL"}
{"Compound": "CCc1nn(C)c2nc(-c3ccc(C(=O)O)cc3)nc(NCc3ccccc3)c12", "tested on": "Cryptosporidium parvum", "test system": "HCT-8", "setting": "6 x EC90, 72 h", "scale": "relative to: DMSO control", "endpoint": "parasite number", "value": "44% and 40.4% and 35% and 28.1%"}
{"Compound": "C[N+]1=C2C(c3ccc([N+](=O)[O-])cc3)=[N+]([O-])c3ccccc3N2CCC1", "tested on": "Bacteroides fragilis", "endpoint": "MIC90", "value": "1 µg/mL"}
{"Compound": "CC(C)[C@H]1NC(=O)[C@H](Cc2ccccc2)NC(=O)[C@@H](C(C)C)NC(=O)[C@@H](C)NC(=O)[C@H](CO)NC(=O)[C@@H](Cc2c(-c3ccc(-c4ccc5ccccc5c4)cc3)[nH]c3ccccc23)NC(=O)[C@@H](CO)NC1=O", "tested on": "Vibrio vulnificus", "assay": "broth dilution", "endpoint": "MIC90", "value": "> 50 µM"}
{"Compound": "FC(F)(F)c1cccc(CNc2nc(NC3CCN(Cc4ccccc4)CC3)c3nc[nH]c3n2)c1", "tested on": "Cryptococcus neoformans", "assay": "RNA-seq, refers to: INM1 (CNAG_01823)", "setting": "48 µg/mL, 3 h", "scale": "relative to: untreated", "endpoint": "mRNA fold change", "value": 1.25}
{"note": "For quick reference, copied from above:"}
{"Compound": "CC[C@H](C)CCCCC(=O)N[C@@H](CCN)C(=O)N[C@H](C(=O)N[C@@H](CCN)C(=O)N[C@H]1CCNC(=O)[C@H]([C@@H](C)O)NC(=O)[C@H](CCN)NC(=O)[C@H](CCN)NC(=O)[C@H](CC(C)C)NC(=O)[C@@H](CC(C)C)NC(=O)[C@H](CCN)NC1=O)[C@@H](C)O", "tested on": "Escherichia coli", "assay": "daily serial passaging", "test system": "ATCC 8739", "setting": "highest sub-MIC, 22 days", "scale": "relative to: initial MIC", "endpoint": "MIC fold change", "value": 1.26}
{"Compound": "CCOC(=O)C1(Cc2ccccc2)Oc2ccccc2N(Cc2ccccc2)C1=O (stereo not shown)", "tested on": "Amaranthus retroflexus", "assay": "fresh weight, greenhouse postemergence", "setting": "postemergence, 150 g ai/ha, 21 days", "endpoint": "inhibition", "value": "55.4 ± 5.26%"}
{"Compound": "[O-][N+]1=C(c2ccc(Cl)cc2)C2=NCCCN2c2ccccc21", "tested on": "Bacteroides fragilis", "assay": "microbial growth", "endpoint": "MIC50", "value": "1 µg/mL"}
